Assay results gathered from unrelated publications.
A part holds a random share of what one study measured.

Block 1
Target: Sal-like protein 4, full length isoform B (SALL4, Homo sapiens, UniProt Q9UJQ4-2, residues 1-616)
Method: universal PBM
Molecule type: double-stranded DNA, one strand shown
Sample: in vitro
Tested at: not given
Notes: 8-mer, flanks averaged, mean of replicates
Direction: higher = stronger binding
Measurement: E-score
CTATTCAG: 0.113
TAAGGCGA: 0.047
GGAATTAC: 0.0575
CTATATGC: 0.286
AGCGCGGG: -0.298
ATCCCGAA: -0.0172
AACCATTA: 0.261
GAAGTGTC: -0.0321
CACTACAC: 0.0402
GGATGCCC: -0.319
CCTGTACC: -0.176
CTTAGATC: -0.0523
ACGTTTCC: -0.0524
GGACCTAC: -0.121
AATTCTGT: 0.152
CGAAATGA: 0.154
CAGTCCAG: -0.303
CGAGGAAA: 0.0747
CGTGCCTA: -0.143
GTAATTTA: 0.309
ACGAGGGC: -0.336
AAGACATT: 0.112
AGGTAGAT: 0.0137
CTCAGTGA: -0.144
GGAGGTGA: -0.0719

Block 2
Target: Histone acetyltransferase KAT6A, winged helix 2, GST fusion (KAT6A, Homo sapiens, UniProt Q92794, residues 85-181)
Method: protein binding microarray
Molecule type: double-stranded DNA, one strand shown
Sample: in vitro
Tested at: not given
Notes: 8-mer, flanks averaged, mean of 2 arrays, mostly near background
Baseline: not given
Direction: higher = stronger binding
Measurement: E-score
Construct (chain): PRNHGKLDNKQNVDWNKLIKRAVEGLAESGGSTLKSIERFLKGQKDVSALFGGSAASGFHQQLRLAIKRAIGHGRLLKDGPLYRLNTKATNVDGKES
GTAAGGGA: -0.215
GGGTAATA: 0.147
TCTTCTCA: 0.159
CAGTGTCG: -0.06
CGCAGAAG: 0.203
CTATCCAG: 0.0331
GCTATTCC: -0.0304
CAACGTTC: -0.207
ATGAATGG: -0.182
GGAATAAA: 0.0898
AAAGGATG: -0.0213
AACTTGAG: -0.173
ATCCTTCC: -0.261
CAATTAAG: 0.0576
AATGGACT: -0.17
AATTAAGT: 0.128
GCAGGACC: -0.0963
GCGATGCC: 0.109
GATGCCAA: -0.0715

Block 3
Target: ATP-dependent RNA helicase DDX3X, helicase core (DDX3X, Homo sapiens, UniProt O00571, residues 132-607)
Sequence of UniProt O00571 (132-607, looked up): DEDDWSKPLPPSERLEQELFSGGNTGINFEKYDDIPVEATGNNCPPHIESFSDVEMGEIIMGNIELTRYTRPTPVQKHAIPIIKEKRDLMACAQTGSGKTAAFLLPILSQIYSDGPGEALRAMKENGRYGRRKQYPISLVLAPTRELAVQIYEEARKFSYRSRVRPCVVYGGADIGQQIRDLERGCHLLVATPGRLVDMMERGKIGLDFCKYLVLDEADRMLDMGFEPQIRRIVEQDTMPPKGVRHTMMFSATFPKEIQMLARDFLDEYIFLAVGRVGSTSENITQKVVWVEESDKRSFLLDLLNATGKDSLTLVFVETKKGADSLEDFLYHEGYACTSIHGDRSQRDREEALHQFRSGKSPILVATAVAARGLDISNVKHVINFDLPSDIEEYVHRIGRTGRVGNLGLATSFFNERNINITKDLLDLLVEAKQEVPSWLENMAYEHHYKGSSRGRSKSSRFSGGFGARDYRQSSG
Method: RNA Bind-n-Seq
Molecule type: RNA
Sample: in vitro
Tested at: 90 pmol
Notes: 4-mer, random 30-nt RNA, single round
With: 3 µM iPr-DMDA-PatA, 2 mM ADP, 2 mM phosphate
Baseline: input library
Direction: higher = stronger binding
Measurement: 4-mer enrichment
AUGG: 0.921 fold
UCAG: 0.974 fold
UACC: 1.08 fold
UGCG: 0.746 fold
CUAU: 0.955 fold
CUCA: 0.996 fold
GUAG: 1.08 fold
CUUG: 0.757 fold
GAAA: 1.62 fold
GCCA: 0.89 fold
GUCU: 0.826 fold
AAUC: 1.18 fold

Block 4
Target: PABPC1L2, full length, GST fusion (mouse, UniProt A0ABA7IW68)
Method: RNAcompete
Molecule type: RNA
Sample: in vitro
Tested at: 20 nM
Notes: 7-mer, probes averaged, single round
Baseline: mean of 7-mers
Direction: higher = stronger binding
Measurement: 7-mer Z-score
Construct (chain): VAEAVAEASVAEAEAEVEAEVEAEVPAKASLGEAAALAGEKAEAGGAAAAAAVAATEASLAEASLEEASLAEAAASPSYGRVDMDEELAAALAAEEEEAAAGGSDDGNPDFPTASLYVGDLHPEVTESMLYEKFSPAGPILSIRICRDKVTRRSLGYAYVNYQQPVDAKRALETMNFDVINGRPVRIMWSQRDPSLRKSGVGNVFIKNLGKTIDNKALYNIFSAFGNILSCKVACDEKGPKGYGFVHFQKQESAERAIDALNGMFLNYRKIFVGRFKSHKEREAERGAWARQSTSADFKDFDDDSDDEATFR
GUAGUGG: -0.106
GUAUGUA: 0.0261
CCUAUGG: -0.228
CAGGUGC: 0.0533
UGGACCA: 0.0297
GUGGCUG: 0.215
GCGUCGC: -0.258
CUGGAAU: -0.101
UCAGCUU: -0.255
CGUGCGU: -0.318
GGGGAGU: 0.135
AGGCGAC: 0.256
CCGUGCA: -0.0301
CAUUAGC: -0.267
UAACCGU: -0.228
ACGGAUG: 0.0895
CGCCAUG: -0.267
GCUUAAC: -0.208
AUAUGCC: -0.0428
UAGGGGC: 0.323
AUGUCGG: 0.0189
GGAGUCC: -0.148
UAUAUAA: 0.164

Block 5
Target: Protein C-ets-1 (ETS1, Homo sapiens, UniProt P14921, residues 1-441, full length assumed)
Method: protein-binding microarray
Molecule type: double-stranded DNA, one strand shown
Sample: in vitro
Tested at: not given
Notes: k-mer, scored over probes, only values ≥0.25
Direction: higher = stronger binding
Measurement: E-score
Target sequence (chain): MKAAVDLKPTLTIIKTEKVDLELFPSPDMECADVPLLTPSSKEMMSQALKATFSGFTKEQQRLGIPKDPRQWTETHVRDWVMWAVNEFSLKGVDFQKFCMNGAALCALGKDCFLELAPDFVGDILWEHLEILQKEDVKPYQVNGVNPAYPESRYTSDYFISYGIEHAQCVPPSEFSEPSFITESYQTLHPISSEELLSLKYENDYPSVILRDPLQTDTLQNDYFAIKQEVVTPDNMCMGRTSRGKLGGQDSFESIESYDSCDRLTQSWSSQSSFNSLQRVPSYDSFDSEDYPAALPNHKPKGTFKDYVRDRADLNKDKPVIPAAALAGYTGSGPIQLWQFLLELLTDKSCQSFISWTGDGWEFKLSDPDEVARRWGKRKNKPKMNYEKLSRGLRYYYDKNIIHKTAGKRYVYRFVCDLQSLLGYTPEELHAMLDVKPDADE
CTCCGGAA: 0.454
ATATATCC: 0.356
GGAAAAAA: 0.273
ATGCCGGA: 0.433
CGCTTCCC: 0.393
AACGGAAG: 0.468
AGGCTTCC: 0.291
AAAGGAAG: 0.413
GGAAGTCA: 0.44
CCGACCGG: 0.324
AGGAAGCG: 0.454
ACCGGAAG: 0.498
ACATGTCC: 0.253
CCGCGTCC: 0.335
CTCGGAAG: 0.317
ACCATCCT: 0.28
CTCCAGGA: 0.256
ATGGCGGA: 0.309
CCTGGAAA: 0.297
AAATATCC: 0.301
CGGAAGAC: 0.41
ACCGGTGC: 0.279
CAGGACAC: 0.257

Block 6
Target: Ras GTPase-activating protein-binding protein 1, RRM domain (G3BP1, Homo sapiens, UniProt Q13283)
Sequence of UniProt Q13283 (whole entry, looked up): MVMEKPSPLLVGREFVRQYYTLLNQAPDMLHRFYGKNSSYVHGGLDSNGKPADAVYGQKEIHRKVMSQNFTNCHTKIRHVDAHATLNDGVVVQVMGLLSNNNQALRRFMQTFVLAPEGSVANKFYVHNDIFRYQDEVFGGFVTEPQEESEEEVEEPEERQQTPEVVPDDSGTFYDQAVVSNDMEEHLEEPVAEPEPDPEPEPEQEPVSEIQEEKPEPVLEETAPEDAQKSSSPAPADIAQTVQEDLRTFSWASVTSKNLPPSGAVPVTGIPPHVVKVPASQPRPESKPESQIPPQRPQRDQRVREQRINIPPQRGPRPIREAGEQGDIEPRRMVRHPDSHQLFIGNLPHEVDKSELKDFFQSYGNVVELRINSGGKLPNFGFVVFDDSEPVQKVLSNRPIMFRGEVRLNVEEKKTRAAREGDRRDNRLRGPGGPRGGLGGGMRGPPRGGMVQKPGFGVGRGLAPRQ
Method: RNA Bind-n-Seq
Molecule type: RNA
Sample: in vitro
Tested at: 1 µM
Notes: whole 134-nt RNA, ends assumed
With: 150 mM KCl
Baseline: input library
Direction: higher = stronger binding
Measurement: log2 enrichment
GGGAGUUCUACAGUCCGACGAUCACCAUGCAGGUGGGCAUCUUUGGGAAGUGGGGCAAGGGGGGGAUAGGGAGGAAAGUAACACUUUGGGAACAGGUGGUCCCAGGUCGUUUCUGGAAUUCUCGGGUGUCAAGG: -0.364
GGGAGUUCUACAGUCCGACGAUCUUGCAGCAACUGCUACCAGCCUCCCAGUCCACACAGCUGCCAUGCUCAAGUUCCCCUCAGGAGACCACCCAGUCUCGCCCUAUGCCGCCGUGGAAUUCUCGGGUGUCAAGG: -0.158
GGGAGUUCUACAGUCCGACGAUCCACAGACAACACGCACCCACACAGACACAGAGGGAAGGGGUUGGGGUGGGGACAGGGUGCACAGCAGGGCGGGGUAGGACCCCAGCCCCUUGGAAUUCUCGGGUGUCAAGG: 0.217
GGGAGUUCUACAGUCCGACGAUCUCCUGUGCUACACAUCGUAUGUACCGAAUCGGGUUUUUUUGGGAAAAAAAGGGAAAGGGAAAGUAUUAUGUUACGCCGUUCGGAUCUGCAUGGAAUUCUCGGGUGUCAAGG: -0.296
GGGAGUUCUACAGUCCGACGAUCACCAUGCAGGUGGGCAUCUUUGGGAAGUGGGGCAAGGGGGGGAUAGGGAGGGGGGUAACACUUUGGGAACAGGUGGUCCCAGGAAAUUUCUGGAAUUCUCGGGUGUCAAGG: -0.342
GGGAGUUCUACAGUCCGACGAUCGUCCUGUGCUACACAUCGUAUGUACCGAAUCGGGUUUUUUUGGGAAAAAGGGAAAGGGAAAGUAUUAUGUUACGCCGUUCGGAUCUGCACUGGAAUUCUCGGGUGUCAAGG: -0.0885
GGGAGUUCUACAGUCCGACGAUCUAACUUUAGAGGAGGAUCUGAUGGAUAUGGCUGUGGACGUGGAUUUGGGGAUGGCUAUAAUGGGUAUGGAGGAGGACCUGGAGGUGGCAAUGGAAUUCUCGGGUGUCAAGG: -0.745
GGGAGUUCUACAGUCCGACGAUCUCCUGUGCUACACAUCGUAUGUACCGAAUCAAACCCAAAUUUUUUUAAAUUUUUUUAAAAAAGUAUUAUGUUACGCCGUUCGGAUCUGCAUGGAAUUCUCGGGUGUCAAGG: -0.342
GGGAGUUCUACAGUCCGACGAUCAAGUCCUGUGCUACACAUCGUAUGUACCGAAUCGGGGAAAAGGGAAAAGGGAAAAGGAAAGUAUUAUGUUACGCCGUUCGGAUCUGCACUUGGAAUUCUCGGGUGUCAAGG: -0.0766

For quick reference, copied from above (block 2):
GGGTAATA: 0.147
TCTTCTCA: 0.159
CAGTGTCG: -0.06
CGCAGAAG: 0.203
CTATCCAG: 0.0331
GCTATTCC: -0.0304
CAACGTTC: -0.207
ATGAATGG: -0.182
GGAATAAA: 0.0898
AAAGGATG: -0.0213
AACTTGAG: -0.173
ATCCTTCC: -0.261
CAATTAAG: 0.0576
AATGGACT: -0.17
AATTAAGT: 0.128
GCAGGACC: -0.0963
GCGATGCC: 0.109
GATGCCAA: -0.0715
